{"data": "Measured values pooled from the literature", "note": "Each numbered part is a random draw from the data of one study; scales do not carry over between parts. Positions count from the first letter of the parent shown."}
{"data": "Block 1", "target": "Ras GTPase-activating protein-binding protein 1, full length (G3BP1, Homo sapiens, UniProt Q13283)", "technique": "RNA Bind-n-Seq", "molecule type": "RNA", "matrix": "in vitro", "concentration": "200 nM", "notes": "whole 134-nt RNA, ends assumed", "added": "150 mM LiCl", "relative to": "input library", "direction": "higher = stronger binding", "all molecules": "7-deaza-guanosine replaces G", "chain of UniProt Q13283 (whole entry, looked up)": "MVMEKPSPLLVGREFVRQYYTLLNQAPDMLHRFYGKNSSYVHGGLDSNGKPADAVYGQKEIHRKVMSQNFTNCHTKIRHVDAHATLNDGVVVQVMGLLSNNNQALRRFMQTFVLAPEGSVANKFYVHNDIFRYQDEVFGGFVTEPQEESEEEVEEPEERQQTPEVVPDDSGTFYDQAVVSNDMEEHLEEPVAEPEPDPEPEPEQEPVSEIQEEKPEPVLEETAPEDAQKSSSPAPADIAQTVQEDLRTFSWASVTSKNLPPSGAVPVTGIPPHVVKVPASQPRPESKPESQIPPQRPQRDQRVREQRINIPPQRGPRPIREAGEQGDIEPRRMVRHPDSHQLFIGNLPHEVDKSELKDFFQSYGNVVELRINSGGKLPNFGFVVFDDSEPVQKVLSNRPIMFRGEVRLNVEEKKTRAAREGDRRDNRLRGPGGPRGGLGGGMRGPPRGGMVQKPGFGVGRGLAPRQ"}
{"Sequence": "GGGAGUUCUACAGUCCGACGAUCUAACUUUAGAGGAGGAUCUGAUGGAUAUGGCAGUGCACGUGGAUUUGGGGAUGGCUAUAAUGGGUAUGGAGGAGGACCUGGAGGUGGCAAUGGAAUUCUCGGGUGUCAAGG", "log2 enrichment": -0.354}
{"Sequence": "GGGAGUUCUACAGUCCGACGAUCCUCAAGUCCUGUGCUACACAUCGUAUGUACCGAAUCGGGGCCGGGCCGGCCGGGAAAGUAUUAUGUUACGCCGUUCGGAUCUGCACUUCCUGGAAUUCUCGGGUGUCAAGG", "log2 enrichment": 0.715}
{"Sequence": "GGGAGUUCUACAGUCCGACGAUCCCUGUGCUACACAUCGUAUGUACCGAAUCGGGGUUUUUUUGGGGUUUGGGGUUUUUGGGGAAAGUAUUAUGUUACGCCGUUCGGAUCUGCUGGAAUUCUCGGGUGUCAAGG", "log2 enrichment": 0.386}
{"Sequence": "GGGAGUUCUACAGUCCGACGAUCUGAAAAUUCUCGACUGGCUGCUGAGGUUUACAAAGACAUGCCGGAAACCAGCUUUACUCGAACCAUUUCUAAUCCUGAGGUGGUUAUGAAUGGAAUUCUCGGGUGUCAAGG", "log2 enrichment": -2.13}
{"Sequence": "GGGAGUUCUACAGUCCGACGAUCUGCUUCAUCGCCUUGUGCUCCUGCCCCUGGGAGCUGUGGAUCCCAGAUCCAGAUGACAGCCCACCUUGCUGGCAGGAUGCGCCAAUCCCCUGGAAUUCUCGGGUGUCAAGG", "log2 enrichment": 0.922}
{"Sequence": "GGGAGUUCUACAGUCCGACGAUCUGGACCUGGUGGCAUGCGGGGAGGAAGAGGUGGCCUCAUGGAUCGUGGUGGUCCCGGUGGAAUGUUCAGAGGUGGCCGUGGUGGAGACAGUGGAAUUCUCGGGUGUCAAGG", "log2 enrichment": 0.305}
{"Sequence": "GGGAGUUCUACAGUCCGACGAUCCUGUGCUACACAUCGUAUGUACCGAAUCGGGGUUUGGGGAAAAAAAGGGGUUUUUUUGGGGAAAGUAUUAUGUUACGCCGUUCGGAUCUGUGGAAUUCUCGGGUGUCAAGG", "log2 enrichment": 0.185}
{"Sequence": "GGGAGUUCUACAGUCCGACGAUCGCAGGAAGUAAAAACAAAUGGAAAUGCUUCGGAUAGUGGCAGGGGUGGAGGUUGCUAAGGAAAGGGUGGGAUGGGAGUGGGUAAAGAGUUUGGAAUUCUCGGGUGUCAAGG", "log2 enrichment": -0.116}
{"data": "Block 2", "target": "BATF2, bZIP domain (human)", "technique": "DHFR protein complementation", "matrix": "yeast", "notes": "single substitutions, most at no-binding floor", "relative to": "wild-type JUN-FOS pair", "direction": "higher = stronger binding", "parent": "JUN, bZIP domain (human); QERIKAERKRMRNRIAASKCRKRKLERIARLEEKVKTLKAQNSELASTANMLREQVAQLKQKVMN; partner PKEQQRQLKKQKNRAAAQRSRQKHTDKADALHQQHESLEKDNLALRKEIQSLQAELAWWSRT"}
{"Change": "S43W", "binding fitness": "-0.569 natural log"}
{"Change": "Q55D", "binding fitness": "-1.1 natural log"}
{"Change": "V35C", "binding fitness": "-0.304 natural log"}
{"Change": "K39M", "binding fitness": "-0.455 natural log"}
{"Change": "L45F", "binding fitness": "-1.03 natural log"}
{"Change": "R53D", "binding fitness": "-1.32 natural log"}
{"Change": "A49K", "binding fitness": "-0.556 natural log"}
{"Change": "A49Y", "binding fitness": "-0.94 natural log"}
{"Change": "K34F", "binding fitness": "-0.994 natural log"}
{"Change": "N42G", "binding fitness": "-1.29 natural log"}
{"Change": "E44Y", "binding fitness": "-0.665 natural log"}
{"Change": "A46T", "binding fitness": "-0.228 natural log"}
{"Change": "L52P", "binding fitness": "-1.5 natural log"}
{"data": "Block 3", "target": "Hepatocyte nuclear factor 3-alpha (Foxa1, Mus musculus, UniProt P35582, residues 1-468, full length assumed)", "technique": "EMSA with sequencing", "molecule type": "double-stranded DNA, one strand shown", "matrix": "in vitro", "concentration": "10 and 20 nM", "notes": "whole designed probe, mean of two concentrations, ends assumed", "relative to": "negative control set to 0", "direction": "higher = stronger binding", "Target sequence (chain)": "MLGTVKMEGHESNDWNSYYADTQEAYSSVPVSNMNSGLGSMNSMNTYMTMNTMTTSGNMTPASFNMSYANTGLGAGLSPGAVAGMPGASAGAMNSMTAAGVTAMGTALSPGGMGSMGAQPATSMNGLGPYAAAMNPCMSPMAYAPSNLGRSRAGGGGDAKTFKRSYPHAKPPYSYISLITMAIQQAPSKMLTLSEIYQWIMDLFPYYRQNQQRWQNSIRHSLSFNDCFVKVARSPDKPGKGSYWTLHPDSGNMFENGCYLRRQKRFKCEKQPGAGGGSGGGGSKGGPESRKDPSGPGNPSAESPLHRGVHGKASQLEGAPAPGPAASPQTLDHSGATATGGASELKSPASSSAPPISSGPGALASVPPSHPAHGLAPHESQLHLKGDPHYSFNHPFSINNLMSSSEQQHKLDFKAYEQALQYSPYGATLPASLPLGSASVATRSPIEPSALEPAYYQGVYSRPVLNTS"}
{"Sequence": "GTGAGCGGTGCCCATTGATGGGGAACCTTGTCTACAATCCAGTATTTAATAGCAACTTCATCTACCAAGTGGGATAATGAATTACAAATGATAAGATGTGATCTCAAATGTTTTAGAAAAGTAAACATGGGAGAAATAATTAAAAGTTGAAAGGCCTATTTGGAAAACAAAGGGAGAGTCATGGAGGTTTCTATCAAATTCCAGGGACAGGCAGTAGCATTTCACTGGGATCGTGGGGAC", "normalised bound fraction": "0.438 ratio"}
{"Sequence": "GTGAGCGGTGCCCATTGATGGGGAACCAGCCGGCCTAGACTTCAGGTCTAGTTAGCACACATTCTTATGCCCACCTTTTCCAACTTCACAGGCGCCTCTCATCTCTCCGTTAAGCTCTTGTTTACTCAGGACCACATATTTTAGTAATTGGTGGCTCACTCATTGCTTCACATCTATTCGGTTCCCGTTGCCACTGTATTTTGACAACATGTATTGCTTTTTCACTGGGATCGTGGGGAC", "normalised bound fraction": "0.444 ratio"}
{"Sequence": "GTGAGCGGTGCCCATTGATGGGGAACGGCGGAAGTGGAAAGAAATTGAGGGATCTGAATTTGTTGTTTACTAGGAGGTGTGGGTCCAACTTCCAACCTTGTCCCCAGACCTTTTCCAGGTGTTTGCTTAGGAAGCACTGCCATCTTGTGGCTTACTATAGTTATTGCAGACAGAAGGAAAATCTACCAAAGCCCCCATGACAATACCAATGAGCAATGATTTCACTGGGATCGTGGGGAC", "normalised bound fraction": "0.242 ratio"}
{"Sequence": "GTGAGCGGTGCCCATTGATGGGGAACATCTTCCCCCTCTTCCTTGCCCCACCAGCTCACCTTCCCGGGTTATTTGCACAAAGGAAAATAAATAAAGCCGGCATTCGTTAACCCTCTTCACGCGCATACTGCTGTTTGCTCTGCATGAATCATGGTCCTTACGCGAGGCGTGGCTCCGGGAGAGCAAAGCACCGTGTCAGGCGCATGATCCGGGGTGGCCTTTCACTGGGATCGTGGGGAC", "normalised bound fraction": "0.378 ratio"}
{"Sequence": "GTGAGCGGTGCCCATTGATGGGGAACATCTTCCCCCTCTTCCTTGCCCCACCAGCTCACCTTCCCGGGTTATTTGCACAAAGGAAAATAAATAAAGCCGGCATTCGTTAACCCTCTTCACGCGCATACTGCTGTTTGCTCTGGATCTAACATGGTCCTTTGGCGACGCCAGGCTCCGGGAGAGCAAAGCACCGTGTCAGGGCCATGATCCGGGGTGGCCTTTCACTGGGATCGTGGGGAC", "normalised bound fraction": "0.374 ratio"}
{"data": "Block 4", "target": "CCND3, cyclin fold, Cln2 fusion (human)", "technique": "yeast growth competition, sequencing", "matrix": "yeast", "notes": "weak parent motif", "relative to": "not given", "direction": "higher = stronger binding", "parent": "WEE1 docking peptide (human); CTLRQKLIFSPCS; partner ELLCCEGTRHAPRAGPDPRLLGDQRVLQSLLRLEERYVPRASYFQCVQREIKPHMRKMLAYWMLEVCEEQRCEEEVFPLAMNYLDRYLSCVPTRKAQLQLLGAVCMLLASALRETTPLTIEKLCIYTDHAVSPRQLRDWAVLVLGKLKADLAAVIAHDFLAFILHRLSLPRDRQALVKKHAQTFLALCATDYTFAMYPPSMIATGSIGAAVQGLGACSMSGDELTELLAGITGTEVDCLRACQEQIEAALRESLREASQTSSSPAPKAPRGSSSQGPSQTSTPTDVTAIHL"}
{"Change": "Q5A", "normalised enrichment score": 0.0978}
{"Change": "C1A", "normalised enrichment score": -0.0342}
{"Change": "T2A", "normalised enrichment score": -0.036}
{"Change": "K6A", "normalised enrichment score": -0.182}
{"Change": "S13A", "normalised enrichment score": 0.016}
{"Change": "L3A", "normalised enrichment score": -0.313}
{"data": "Further values, each from its own experiment"}
{"Substance": "PhoQ, residues 284 288 289 292 302 303 TASMAF", "target": "PhoP, residues 12 14 15 18 19 HEGLL (Escherichia coli, UniProt P23836)", "test": "Sort-seq, refers to: YFP reporter", "test system": "E. coli", "conditions": "PhoQ-PhoP variant library, added: 10 µM Mg2+", "how to read": "relative to: high Mg2+ state, higher = stronger signaling", "quantity": "fold induction", "value": 12}
